Assay results collected from several papers.
Parts stem from different laboratories: compare values within a part only.

Set 1
Target: RNA binding protein fox-1 homolog 2, RRM domain, GST-SBP tag (RBFOX2, Homo sapiens, UniProt O43251-10, residues 100-194)
Technique: RNA Bind-n-Seq
Form: RNA
Medium: in vitro
Tested at: 365 nM
Setting: natural RNA segment, single round, ends assumed
Baseline: no-protein control
Direction: higher = stronger binding
Shared flanks, not repeated: GGGAGUUCUACAGUCCGACGAUC … UGGAAUUCUCGGGUGCCAA
Sequence	RBNS enrichment (R)
AAUUUUUCUGUAUCCUGGAACCAUUACAUGAUCAUGUUGCUUUGAAGAUCUUUUUAUGCCACUGUUUCUGCUGUCUUGGUUCUGACACCCCUGUCUGGUGAUAUGCUAUA	0.577
AUGUUGGGCAAAUAUAUAUAAUUAUUUUUUCUGGUAAAUUCAUGUCAGUAAUUUGUUGAAGAGUUAACAAGAAAAGGUCUUUCUAGAUUGUGUCUAAGAUGAAAUAAAAU	0.411
CUUUAACCUCCCUUCUAGCCCACCACCAACCAGAGAUAGUGGGAAAGAAAGGAUACAGGGGAAGUGGACCUGUUUAGAAAUGGUUCUUUGGAGCAGAUCCUGUCUGCAUU	0.384
UAGAUCUUAACAGUUUAUUAUUAACUUUUCAGGUCCUCAUUUAUUGAAAUUUAAAAAUAAAUGAAGGAAUAUAGAGAUGGCACAGGGUUCCAGCUUGUUGUGUUUAUAAA	2.64
AGCACACACGCCUCAUUCUCUGCCCUCACCCACUGCUCACCUAGAGCAUCGCUGAGCGUUAGACAAAGUGUUACACAGAAUGAUUAAAACUUUCAGACUUCUACCUAUGC	0.656
GUAAAUGGCUCUAGAGUUAGAGUGACUGUUUGCUCUUCUGCUUUCUGGAAUGCAGAUGACAGUAUGGAAAGAAAGAAUAAUGAUUCUAUCUAAUAGGAAAGGAUUUCUUC	0.565
CUGGAGCUGGCCAUCCCAAAUUCAAUCAGUCCAUAGAGACGAACAGAAUGAGACCUUCCGGCCCAAGCGUGGCGCUGCGGGCACUUUGGUAGACUGUGCCACCACGGCGU	0.369
CCAGGUAGGUGUUCCUCGAGUGCCAACGGCGGGGCCUGCCCACCCCUGUCUUCCUUUCUGGGCAAGCUCCCAUUUUAACUUUUCCCUGUUAAAAAUUGUACUGAUGUUUU	0.935

Set 2
Target: RING finger protein unkempt homolog, zinc fingers 1-6, GST-SBP tag (UNK, Homo sapiens, UniProt Q9C0B0, residues 30-357)
Technique: RNA Bind-n-Seq
Form: RNA
Medium: in vitro
Tested at: not given
Setting: RNA with constant flanks, ends assumed
Baseline: input RNA pool
Direction: higher = stronger binding
Shared flanks, not repeated: GGGAGUUCUACAGUCCGACGAUC … CAACAGAGGAUUGAGCAUCA
Residues (chain): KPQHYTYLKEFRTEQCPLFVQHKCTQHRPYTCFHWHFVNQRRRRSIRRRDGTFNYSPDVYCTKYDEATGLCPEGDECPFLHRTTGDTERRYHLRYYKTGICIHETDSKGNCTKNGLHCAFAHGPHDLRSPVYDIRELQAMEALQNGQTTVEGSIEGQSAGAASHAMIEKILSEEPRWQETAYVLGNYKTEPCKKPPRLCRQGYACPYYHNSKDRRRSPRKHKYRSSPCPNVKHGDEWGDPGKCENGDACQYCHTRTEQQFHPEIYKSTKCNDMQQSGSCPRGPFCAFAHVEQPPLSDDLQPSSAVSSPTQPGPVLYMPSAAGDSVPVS
Sequence	bound/input enrichment
GAGGUUGUUAAGGACAAAGCAGGACCUCAUAAGGAAAUCUACCCCUAUGUCAUCCAGGAACUCCGACCAACUUUAAAUGAACUGGGAAUCUCCACUCCGGAGGAACUGGGCCUUGACAAA	0.162 ratio
CUUAUCAAUCCAGAUGAACUGAGGGACAUCUGUUGGUCUAUGUAUAACUUUUAAAAUUGGUACCGUAUCUACAGAGUGUAUAAUUUAAACUAACCACAAAGCUUUACAUCUUCAUUUUGA	0.163 ratio
UGUGUUCACAAUUACGUGAAGGGAGGACCCUUGGGGACCGCCAUUCUAAAUAUCAUGCCGGAAUUUAAAAAGCCAAAAUACUAAUUAUUUCUUUGUAGUGUGUAAAGGAAUGUUUUUAAA	0.274 ratio
AUUCUGCUGGGCAAUGGCACCCUGCCCGCCACCAUCCUCACCAGUCUCUUCACCGACAGCUCCGUCAAAGAAGGCAUUGCGGCCUCAUUUGCUGUCAAGCUUUUCAAAGCAUGGAUGGCA	0.0978 ratio
CAUUUGAUGUAUGCGGUGAGGGAGGAAGUGGAAGUUCUGAAGGAGCAGAUCAAAGAACUAACCGAGAAAAACUCCCAGCUGGAGCAGGAGAACAAUCUGCUGAAGACGCUGGCCAGUCCG	0.154 ratio
CUAAAAAAGAGAAUAACAUGAAAACGCCCAGGGUUACUUGAAUGUUUUUAUAAGACCGGAAUAUAUGUCUUCACCAUGGGGGGGGUCUCGAUUUCACUAACGUUGUAUAUGAAAAUGUCU	0.35 ratio
GUCAACAAGGUGGAGUUGCUGGUGAUGAAGGCACUCUCGGUGGGGCUGGUGAGAGGCAGCACCGACGAGGUGGACAAGCGGGUUCACAUGACGUGGGUGCAGCCGCGAGUGCUGGAUUUG	0.306 ratio
GUUUUCUAUUCUCCCUCUACCUUAUCCCCCACCCCCACCCCACCCCACCCCUUUUUUAUUCCGUUUUAUUUACUUUACCUAGUAUGGCUUUUUUAGUUGCUUCUCAAGUCAGAAAACUUC	1.32 ratio

Set 3
Target: Ras GTPase-activating protein-binding protein 1, full length (G3BP1, Homo sapiens, UniProt Q13283)
Chain of UniProt Q13283 (whole entry, looked up): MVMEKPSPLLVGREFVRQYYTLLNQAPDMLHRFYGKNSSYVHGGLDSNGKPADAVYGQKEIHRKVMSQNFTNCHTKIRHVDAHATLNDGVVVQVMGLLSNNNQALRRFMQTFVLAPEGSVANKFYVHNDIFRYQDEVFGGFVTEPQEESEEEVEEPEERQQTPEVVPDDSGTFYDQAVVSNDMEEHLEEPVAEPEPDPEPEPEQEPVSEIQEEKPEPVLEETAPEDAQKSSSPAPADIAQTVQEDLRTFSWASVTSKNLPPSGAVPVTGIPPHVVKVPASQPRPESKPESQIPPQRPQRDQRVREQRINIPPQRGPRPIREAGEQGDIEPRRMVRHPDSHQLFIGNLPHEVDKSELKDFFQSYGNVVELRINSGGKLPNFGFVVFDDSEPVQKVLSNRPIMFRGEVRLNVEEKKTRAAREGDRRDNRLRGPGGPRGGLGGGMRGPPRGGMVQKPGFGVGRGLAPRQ
Technique: RNA Bind-n-Seq
Form: RNA
Medium: in vitro
Tested at: 200 nM
Setting: whole 134-nt RNA, ends assumed
With: 150 mM KCl
Baseline: input library
Direction: higher = stronger binding
Shared flanks, not repeated: GGGAGUUCUACAGUCCGACGAUC … UGGAAUUCUCGGGUGUCAAGG
Sequence	log2 enrichment
CAAGUCCUGUGCUACACAUCGUAUGUACCGAAUCAAACCCAAAUUUAAACCCAAAAAAGUAUUAUGUUACGCCGUUCGGAUCUGCACUUC	-0.352
UUCCCUGGUGUGAUUCCGUCCUGCGCGGUUGUUCUCUGGAGCAGCGUUCUUUUAUCUCCGUCCGCCUUCUCUCCUACCUAAGUGCGUGCC	0.613
CACAGACAACACGCACCAAAACAGACACAGAGGGAAGGGGUUGGGAUGGGGACAGGGUGCACAGCAGGGCGGGGUAGGACCCCAGCCCCU	1.78
GCAGGAAGUAAAAACAAAUGGAAAUGCUUCGGAUAGUGGCAGGGGUGGGGGUUUCUAAGGAAAGGGUGGGAUGGGAGUGGGUAAAGAGUU	0.834
AAGUCCUGUGCUACACAUCGUAUGUACCGAAUCGGGCCCCGGGCCCCGGGCCCCGGAAAGUAUUAUGUUACGCCGUUCGGAUCUGCACUU	-1.21
CACAGACAACACGCACCCACACAGACACAGAGUGAAGGGGUUGGGAUGGGGACAGGGUGCACAGCAGGGCGGGGUAGGACCCCAGCCCCU	1.88
UGAACCUUCCAAUAGCAACCAAGAAAUAAACUCUGAUGACAGACGACCCCAAUGGAGACGAGAAGACCGAAUUCCUUACCAAGACAGAGA	0.282
GCAGGAAGUAAAAACAAAUGGAAAUGCUUCGGAUAGUGGCAGGGGUGGGGGUUGCUAAGGAAAGGAAAGGAUGGGAGUGGGUAAAGAGUU	0.584
UAACUUUAGAGGAGGAUCUGAUGGAUAUGGCAGUCGACGUGGAUUUGGGGAUGGCUAUAAUGGGUAUGGAGGAGGACCUGGAGGUGGCAA	0.179

Set 4
Target: Histone acetyltransferase KAT6A, winged helix 1, GST fusion (KAT6A, Homo sapiens, UniProt Q92794, residues 1-85)
Technique: protein binding microarray
Form: double-stranded DNA, one strand shown
Medium: in vitro
Tested at: not given
Setting: 8-mer, flanks averaged, mean of 2 arrays, mostly near background
Baseline: not given
Direction: higher = stronger binding
Construct (chain): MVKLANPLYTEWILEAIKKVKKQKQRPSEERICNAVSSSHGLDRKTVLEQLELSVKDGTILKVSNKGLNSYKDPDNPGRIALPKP
Sequence	E-score
AATCATAC	-0.0357
TACGGAAA	0.218
CGAGTTGA	-0.182
AAGACTGC	-0.0884
ATTGTCAC	-0.104
GCTCTAAC	0.178
ACTACCAT	-0.241
CCATCTTC	-0.177
ATGTCGAG	-0.123
CCCTGGAA	-0.152
GGGAAGGA	-0.0154
AGCAGGAG	-0.0826
AACAATCT	-0.117
ACATTCTC	-0.0446
ACGAACTG	-0.134
TATATCAA	-0.0931

Repeated from above (set 4):
Sequence	E-score
CGAGTTGA	-0.182
AAGACTGC	-0.0884
ATTGTCAC	-0.104
